{"data": "Results gathered from unrelated publications", "RARB": "Retinoic acid receptor beta (RARB, Homo sapiens, UniProt P10826)", "G-protein coupled receptor 39": "G-protein coupled receptor 39 (Mus musculus, UniProt Q5U431)", "SCTR": "Secretin receptor (SCTR, Homo sapiens, UniProt P47872)", "FPR2": "N-formyl peptide receptor 2 (FPR2, Homo sapiens, UniProt P25090)", "note": "Compare with care: the assays were run in different laboratories. “And” joins repeats or separate records; there may be more than shown.", "chain of UniProt P25090 (whole entry, looked up)": "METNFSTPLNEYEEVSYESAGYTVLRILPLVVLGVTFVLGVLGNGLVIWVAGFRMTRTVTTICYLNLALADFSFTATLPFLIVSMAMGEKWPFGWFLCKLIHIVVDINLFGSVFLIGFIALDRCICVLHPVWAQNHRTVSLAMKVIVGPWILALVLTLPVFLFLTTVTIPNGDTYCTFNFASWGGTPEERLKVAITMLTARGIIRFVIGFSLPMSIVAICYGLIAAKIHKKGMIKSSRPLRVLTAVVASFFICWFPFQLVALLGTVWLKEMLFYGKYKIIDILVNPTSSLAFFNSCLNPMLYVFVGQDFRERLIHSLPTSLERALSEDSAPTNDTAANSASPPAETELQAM", "chain of UniProt P47872 (whole entry, looked up)": "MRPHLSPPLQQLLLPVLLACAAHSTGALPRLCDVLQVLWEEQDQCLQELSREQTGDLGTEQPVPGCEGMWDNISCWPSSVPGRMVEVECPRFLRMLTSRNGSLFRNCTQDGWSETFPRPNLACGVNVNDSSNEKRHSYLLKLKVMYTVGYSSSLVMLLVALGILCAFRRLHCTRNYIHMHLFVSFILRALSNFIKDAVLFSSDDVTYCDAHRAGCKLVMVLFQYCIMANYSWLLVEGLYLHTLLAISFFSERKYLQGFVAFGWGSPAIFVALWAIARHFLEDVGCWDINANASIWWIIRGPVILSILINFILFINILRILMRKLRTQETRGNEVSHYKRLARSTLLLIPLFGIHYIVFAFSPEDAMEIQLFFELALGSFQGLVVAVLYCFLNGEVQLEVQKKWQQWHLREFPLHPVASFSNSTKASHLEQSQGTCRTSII", "chain of UniProt Q5U431 (whole entry, looked up)": "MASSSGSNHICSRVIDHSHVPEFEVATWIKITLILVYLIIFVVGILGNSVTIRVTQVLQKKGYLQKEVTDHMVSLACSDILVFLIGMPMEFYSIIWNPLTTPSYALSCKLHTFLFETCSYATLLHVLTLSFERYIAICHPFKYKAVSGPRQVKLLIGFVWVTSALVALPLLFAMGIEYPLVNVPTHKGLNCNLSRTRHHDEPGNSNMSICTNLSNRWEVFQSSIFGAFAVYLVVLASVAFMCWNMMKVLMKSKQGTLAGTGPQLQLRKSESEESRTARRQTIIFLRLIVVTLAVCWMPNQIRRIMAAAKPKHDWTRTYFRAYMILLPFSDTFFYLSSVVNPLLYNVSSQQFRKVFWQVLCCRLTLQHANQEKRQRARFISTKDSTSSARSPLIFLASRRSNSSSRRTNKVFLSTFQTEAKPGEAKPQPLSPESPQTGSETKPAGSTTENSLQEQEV", "chain of UniProt P10826 (whole entry, looked up)": "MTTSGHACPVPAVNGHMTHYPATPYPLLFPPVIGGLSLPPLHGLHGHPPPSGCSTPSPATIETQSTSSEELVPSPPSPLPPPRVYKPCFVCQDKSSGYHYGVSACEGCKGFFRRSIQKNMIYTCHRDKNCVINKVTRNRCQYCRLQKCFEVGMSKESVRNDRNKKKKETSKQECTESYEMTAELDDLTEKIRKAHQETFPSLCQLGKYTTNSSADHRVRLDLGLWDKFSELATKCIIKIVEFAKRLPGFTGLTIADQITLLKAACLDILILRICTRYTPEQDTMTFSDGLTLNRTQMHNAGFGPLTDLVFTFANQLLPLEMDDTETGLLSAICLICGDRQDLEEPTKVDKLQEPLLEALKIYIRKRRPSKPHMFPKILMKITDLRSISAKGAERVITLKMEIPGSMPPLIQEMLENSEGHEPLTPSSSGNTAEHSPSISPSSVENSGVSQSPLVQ", "chain of UniProt P0DMS8 (whole entry, unmodified, looked up)": "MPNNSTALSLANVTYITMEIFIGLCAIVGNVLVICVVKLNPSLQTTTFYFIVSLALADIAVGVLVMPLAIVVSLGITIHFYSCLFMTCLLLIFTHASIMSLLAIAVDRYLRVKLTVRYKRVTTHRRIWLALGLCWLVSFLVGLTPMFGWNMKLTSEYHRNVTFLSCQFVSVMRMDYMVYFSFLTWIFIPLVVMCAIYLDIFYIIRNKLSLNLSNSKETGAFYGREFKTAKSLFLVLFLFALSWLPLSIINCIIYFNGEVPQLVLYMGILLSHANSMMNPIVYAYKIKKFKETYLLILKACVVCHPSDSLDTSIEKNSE", "chain of UniProt P34995 (whole entry, looked up)": "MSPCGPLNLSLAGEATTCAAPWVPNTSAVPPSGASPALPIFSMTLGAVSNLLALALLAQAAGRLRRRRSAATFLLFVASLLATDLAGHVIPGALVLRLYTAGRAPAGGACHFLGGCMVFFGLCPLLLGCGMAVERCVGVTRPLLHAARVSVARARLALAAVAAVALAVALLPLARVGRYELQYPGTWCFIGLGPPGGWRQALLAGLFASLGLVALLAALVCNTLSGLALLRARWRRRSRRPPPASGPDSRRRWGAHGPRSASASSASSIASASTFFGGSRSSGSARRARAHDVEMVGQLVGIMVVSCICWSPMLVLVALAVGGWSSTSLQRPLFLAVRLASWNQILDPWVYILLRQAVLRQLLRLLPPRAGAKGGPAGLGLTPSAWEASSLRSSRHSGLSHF", "chain of UniProt Q9UBN7 (whole entry, looked up)": "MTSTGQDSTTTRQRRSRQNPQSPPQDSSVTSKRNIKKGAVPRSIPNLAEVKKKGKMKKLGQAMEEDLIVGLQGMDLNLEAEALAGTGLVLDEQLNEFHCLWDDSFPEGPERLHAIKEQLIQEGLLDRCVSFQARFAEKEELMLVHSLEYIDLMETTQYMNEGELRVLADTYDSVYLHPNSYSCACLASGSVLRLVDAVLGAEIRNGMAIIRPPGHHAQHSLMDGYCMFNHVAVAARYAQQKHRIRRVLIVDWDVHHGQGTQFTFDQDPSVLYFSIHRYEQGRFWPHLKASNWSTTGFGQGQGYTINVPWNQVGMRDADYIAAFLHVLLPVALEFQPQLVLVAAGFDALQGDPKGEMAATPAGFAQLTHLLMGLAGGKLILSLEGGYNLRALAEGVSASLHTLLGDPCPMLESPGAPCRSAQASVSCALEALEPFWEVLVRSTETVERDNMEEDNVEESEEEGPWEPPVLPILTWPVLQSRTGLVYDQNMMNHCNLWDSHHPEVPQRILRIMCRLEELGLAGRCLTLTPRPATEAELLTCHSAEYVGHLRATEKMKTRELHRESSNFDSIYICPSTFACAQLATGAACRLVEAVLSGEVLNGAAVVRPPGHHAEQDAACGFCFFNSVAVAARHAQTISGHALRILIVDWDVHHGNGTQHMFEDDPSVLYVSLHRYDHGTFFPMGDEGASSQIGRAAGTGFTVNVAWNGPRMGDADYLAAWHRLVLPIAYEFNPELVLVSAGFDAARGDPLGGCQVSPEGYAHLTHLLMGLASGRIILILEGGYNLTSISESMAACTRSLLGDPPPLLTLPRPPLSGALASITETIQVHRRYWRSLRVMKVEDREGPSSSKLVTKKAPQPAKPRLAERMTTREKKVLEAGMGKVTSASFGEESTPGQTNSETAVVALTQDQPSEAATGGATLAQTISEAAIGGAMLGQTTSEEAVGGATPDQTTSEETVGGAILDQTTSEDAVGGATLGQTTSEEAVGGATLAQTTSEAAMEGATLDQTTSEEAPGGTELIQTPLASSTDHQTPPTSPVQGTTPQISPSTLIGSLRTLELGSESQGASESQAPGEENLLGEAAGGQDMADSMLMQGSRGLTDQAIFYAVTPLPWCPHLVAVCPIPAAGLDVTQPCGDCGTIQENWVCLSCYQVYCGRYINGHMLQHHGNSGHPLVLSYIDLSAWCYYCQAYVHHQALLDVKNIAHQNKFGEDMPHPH", "chain of UniProt P36507 (whole entry, looked up)": "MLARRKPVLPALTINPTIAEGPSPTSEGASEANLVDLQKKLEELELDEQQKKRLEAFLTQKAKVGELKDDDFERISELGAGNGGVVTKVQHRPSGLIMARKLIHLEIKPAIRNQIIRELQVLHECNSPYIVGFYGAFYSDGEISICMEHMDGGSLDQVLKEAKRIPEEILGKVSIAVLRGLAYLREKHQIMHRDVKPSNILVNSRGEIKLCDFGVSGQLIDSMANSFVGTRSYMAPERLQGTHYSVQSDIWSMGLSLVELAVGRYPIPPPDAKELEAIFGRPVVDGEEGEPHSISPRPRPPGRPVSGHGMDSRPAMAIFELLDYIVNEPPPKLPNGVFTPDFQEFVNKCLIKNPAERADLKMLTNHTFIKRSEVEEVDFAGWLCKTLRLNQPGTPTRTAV", "chain of UniProt P18825 (whole entry, looked up)": "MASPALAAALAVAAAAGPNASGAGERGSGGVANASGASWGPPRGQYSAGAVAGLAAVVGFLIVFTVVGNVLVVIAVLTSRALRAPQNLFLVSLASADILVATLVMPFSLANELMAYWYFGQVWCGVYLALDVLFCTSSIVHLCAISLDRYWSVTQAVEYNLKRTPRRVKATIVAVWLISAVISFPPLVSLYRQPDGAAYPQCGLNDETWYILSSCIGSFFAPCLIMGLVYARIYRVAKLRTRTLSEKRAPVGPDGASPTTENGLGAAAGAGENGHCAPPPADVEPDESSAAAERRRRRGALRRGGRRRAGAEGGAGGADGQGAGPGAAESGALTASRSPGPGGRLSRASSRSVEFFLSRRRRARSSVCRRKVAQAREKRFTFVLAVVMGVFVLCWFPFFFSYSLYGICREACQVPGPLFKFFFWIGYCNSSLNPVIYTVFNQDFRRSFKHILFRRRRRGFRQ", "chain of UniProt Q9BY41 (whole entry, looked up)": "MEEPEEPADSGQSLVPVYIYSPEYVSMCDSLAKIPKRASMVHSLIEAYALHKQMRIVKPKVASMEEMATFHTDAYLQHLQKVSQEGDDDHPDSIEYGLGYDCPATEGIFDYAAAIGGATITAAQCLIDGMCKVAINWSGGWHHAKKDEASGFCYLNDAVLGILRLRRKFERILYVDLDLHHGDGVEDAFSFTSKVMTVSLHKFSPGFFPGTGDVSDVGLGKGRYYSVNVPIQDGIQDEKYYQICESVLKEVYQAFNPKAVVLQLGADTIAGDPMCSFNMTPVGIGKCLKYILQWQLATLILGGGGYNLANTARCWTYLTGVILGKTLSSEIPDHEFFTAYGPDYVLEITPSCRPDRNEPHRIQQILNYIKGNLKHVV"}
{"SMILES": "Cc1cc(OS(=O)(=O)Oc2ccc3ccccc3c2)cc(C(=O)NO)c1", "target or system": "Histone deacetylase 8 (HDAC8, Homo sapiens, UniProt Q9BY41)", "assay": "enzyme activity, inhibitor, fluorescence", "measurement": "Ki", "value": "3.29 µM"}
{"SMILES": "CN(C)c1ncnc2c1ncn2[C@@H]1O[C@H](CO)[C@@H](O)[C@H]1O", "target or system": "Adenosine receptor A3 (ADORA3, Homo sapiens, UniProt P0DMS8, I253Q/V169N)", "assay": "G protein activation, agonist", "measurement": "EC50", "value": "26 µM"}
{"SMILES": "CCc1ccc(C2=CC(C)(C)Sc3ccc(C#Cc4ccc(C(=O)O)cc4)cc32)cc1", "target or system": "RARB", "assay": "reporter gene, antagonist, luciferase", "measurement": "EC50", "value": "0.00034 µM"}
{"SMILES": "C[C@H](CCC(=O)O)[C@H]1CC[C@H]2[C@@H]3[C@H](O)C[C@@H]4C[C@H](O)CC[C@]4(C)[C@H]3CC[C@]12C", "target or system": "G-protein coupled receptor 39", "assay": "calcium signal, agonist, fluorescence", "measurement": "EC50", "value": "> 200 µM"}
{"SMILES": "COc1cccc(OS(=O)(=O)Oc2cccc(C(=O)NO)c2)c1", "target or system": "Protein deacetylase HDAC6 (HDAC6, Homo sapiens, UniProt Q9UBN7)", "assay": "enzyme activity, inhibitor, fluorescence", "measurement": "Ki", "value": "0.041 µM"}
{"SMILES": "Cc1cc([C@@H](C)Nc2ccccc2C(=O)O)c2nc(N3CCC(F)(F)CC3)c(C#N)c(=O)n2c1", "target or system": "Inhibitor of nuclear factor kappa-B kinase subunit beta (IKBKB, Homo sapiens, UniProt O14920)", "assay": "binding, competition with immobilised ligand", "conditions": "1 µM", "measurement": "remaining binding", "value": "100%"}
{"SMILES": "CC1=NN(/C(=N\\c2ccccc2C)Nc2nnc(C)s2)C(c2ccc(C)cc2)S1 (stereo not drawn)", "target or system": "SCTR", "assay": "cAMP, agonist, TR-FRET", "measurement": "EC50", "value": "> 50 µM"}
{"SMILES": "CC1=C(O)C(=O)OC1C (stereo not drawn)", "target or system": "OR8D1 (Homo sapiens, UniProt Q8WZ84, D296E/K295A)", "assay": "cAMP, agonist, luciferase", "measurement": "EC50", "value": "5.13 µM"}
{"SMILES": "CC1=NN(/C(=N\\c2cccc(C)c2)Nc2nnc(C)s2)C(c2ccc(C)cc2)S1 (stereo not drawn)", "target or system": "SCTR", "assay": "cAMP, agonist, TR-FRET", "measurement": "EC50", "value": "3.2 µM"}
{"SMILES": "C[C@H](CCC(=O)O)[C@H]1CC[C@H]2[C@@H]3CC[C@@H]4C[C@H](O)CC[C@]4(C)[C@H]3C[C@H](O)[C@]12C", "target or system": "G-protein coupled receptor 39", "assay": "calcium signal, agonist, fluorescence", "measurement": "EC50", "value": "> 200 µM"}
{"SMILES": "CCCCC[C@H](O)/C=C/[C@H]1[C@H](O)CC(=O)[C@@H]1C/C=C\\CCCC(=O)O", "target or system": "Prostaglandin E2 receptor EP1 subtype (PTGER1, Homo sapiens, UniProt P34995)", "assay": "inositol phosphate, agonist, TR-FRET", "measurement": "EC50", "value": "0.00179 µM and 0.002 µM"}
{"SMILES": "Cc1cccc(N(O)N=Nc2ccc(S(=O)(=O)Nc3onc(C)c3C)cc2)c1", "assay": "ABTS scavenging", "conditions": "20 µg/mL", "measurement": "inhibition", "value": "15.4%"}
{"SMILES": "CC1=NN(/C(=N\\c2ccccc2)Nc2nnc(C)s2)C(c2ccc(C)cc2)S1 (stereo not drawn)", "target or system": "SCTR", "assay": "cAMP, agonist, TR-FRET", "measurement": "EC50", "value": "17.6 µM"}
{"SMILES": "CNc1ncc2c(/C=C/C(=O)N3CCC(OC)CC3)nn(Cc3cccc(C(F)(F)F)c3)c2n1", "target or system": "Activated CDC42 kinase 1 (TNK2, Homo sapiens, UniProt Q07912)", "assay": "enzyme activity, inhibitor, radiometric", "conditions": "1 µM", "measurement": "remaining activity", "value": "94%"}
{"SMILES": "N#Cc1ccc(C[C@H](Nc2ncc(-c3ccc(F)cc3)o2)C(=O)N2CCc3ccccc32)cc1", "target or system": "FPR2", "assay": "calcium signal, agonist", "measurement": "EC50", "value": "50 µM"}
{"SMILES": "CC1=NN(/C(=N\\c2ccccn2)Nc2nnc(C)s2)C(c2ccc(C)cc2)S1 (stereo not drawn)", "target or system": "SCTR", "assay": "cAMP, agonist, TR-FRET", "measurement": "EC50", "value": "> 50 µM"}
{"SMILES": "CCCCC(=O)Nc1ccc(-c2ccc3ncn(CCC)c(=O)c3c2)cn1", "target or system": "Ephrin type-B receptor 6 (EPHB6, Homo sapiens, UniProt O15197)", "assay": "binding, competition with immobilised ligand", "conditions": "0.5 µM", "measurement": "remaining binding", "value": "100%"}
{"SMILES": "C[C@H](CCC(=O)NCCS(=O)(=O)O)[C@H]1CC[C@H]2[C@@H]3[C@@H](O)C[C@@H]4C[C@H](O)CC[C@]4(C)[C@H]3CC[C@]12C", "target or system": "G-protein coupled receptor 39", "assay": "calcium signal, agonist, fluorescence", "measurement": "EC50", "value": "> 200 µM"}
{"SMILES": "COc1cc(-c2cncc3c2CN(C)Cc2cc(N4CCNCC4)ccc2-3)cc(OC)c1OC", "target or system": "Dual specificity mitogen-activated protein kinase kinase 2 (MAP2K2, Homo sapiens, UniProt P36507)", "assay": "enzyme activity, inhibitor", "conditions": "1 µM", "measurement": "remaining activity", "value": "102%"}
{"SMILES": "CCN(O)N=Nc1ccc(S(=O)(=O)Nc2nccs2)cc1", "assay": "ABTS scavenging", "conditions": "20 µg/mL", "measurement": "inhibition", "value": "14.4%"}
{"SMILES": "COC(=O)c1cccc(C(=O)c2c[nH]c3ccc(OC)cc23)n1", "target or system": "Aryl hydrocarbon receptor (AHR, Homo sapiens, UniProt P35869)", "assay": "reporter gene, agonist, luciferase", "measurement": "EC50", "value": "0.064 µM"}
{"SMILES": "C[C@H](CCC(=O)NCC(=O)O)[C@H]1CC[C@H]2[C@@H]3[C@@H](O)C[C@@H]4C[C@H](O)CC[C@]4(C)[C@H]3CC[C@]12C", "target or system": "G-protein coupled receptor 39", "assay": "calcium signal, agonist, fluorescence", "measurement": "EC50", "value": "> 200 µM"}
{"SMILES": "CC1=NN(/C(=N/c2nnc(C)s2)Nc2ccc(C)c(C)c2)C(c2cccc(-c3ccccc3)c2)S1 (stereo not drawn)", "target or system": "SCTR", "assay": "cAMP, agonist, TR-FRET", "measurement": "EC50", "value": "1.2 µM"}
{"SMILES": "Cc1ccc(C2=CCC(C)(C)c3cc(C(/C=C/c4ccc(C(=O)O)cc4)=N/O)ccc32)cc1", "target or system": "RARB", "assay": "reporter gene, antagonist, luciferase", "measurement": "EC50", "value": "> 5 µM"}
{"SMILES": "C=CC(=O)N1CCC(COCC(=O)N2CCN(c3nc(-c4cnc(N)nc4C(F)F)nc(N4CCOC[C@@H]4C)n3)CC2)CC1", "target or system": "Mast/stem cell growth factor receptor Kit (KIT, Homo sapiens, UniProt P10721)", "assay": "binding, competition with immobilised ligand", "conditions": "1 µM", "measurement": "remaining binding", "value": "96%"}
{"SMILES": "Cc1cc(Oc2ncccc2CN2CCN(c3ccccc3)CC2)ccc1-c1c(C)c(=O)[nH]c(=O)n1C", "target or system": "Alpha-2C adrenergic receptor (ADRA2C, Homo sapiens, UniProt P18825)", "assay": "cAMP, agonist, luciferase", "measurement": "EC50", "value": "89 µM"}
{"SMILES": "CC(C)=CCNc1ncnc2c1ncn2[C@@H]1O[C@H](CO)[C@@H](O)[C@H]1O", "target or system": "Adenosine receptor A3 (ADORA3, Homo sapiens, UniProt P0DMS8, V169F)", "assay": "G protein activation, agonist", "measurement": "EC50", "value": "1.3 µM"}
{"SMILES": "CC1=NN(/C(=N/c2nnc(C)s2)Nc2ccc(C)c(C)c2)C(c2ccc(F)c(F)c2)S1 (stereo not drawn)", "target or system": "SCTR", "assay": "cAMP, agonist, TR-FRET", "measurement": "EC50", "value": "0.4 µM"}
{"SMILES": "N#Cc1ccc(C[C@H](Nc2nnc(-c3cccc(F)c3)s2)C(=O)N2CCc3ccccc32)cc1", "target or system": "FPR2", "assay": "calcium signal, agonist", "measurement": "EC50", "value": "37.4 µM"}
{"SMILES": "CC1=NN(/C(=N\\c2ccc(C(F)(F)F)cc2)Nc2nnc(C)s2)C(c2ccc(C)cc2)S1 (stereo not drawn)", "target or system": "SCTR", "assay": "cAMP, agonist, TR-FRET", "measurement": "EC50", "value": "16.5 µM"}
{"SMILES": "N#Cc1ccc(C[C@H](NC(=O)c2cc3ccc(F)cc3[nH]2)C(=O)N2CCc3ccccc32)cc1", "target or system": "FPR2", "assay": "calcium signal, agonist", "measurement": "EC50", "value": "15.1 µM"}
{"SMILES": "CC1=NN(/C(=N/c2nnc(C)s2)Nc2ccc(C)c(C)c2)C(c2ccc(C(F)(F)F)cc2)S1 (stereo not drawn)", "target or system": "SCTR", "assay": "cAMP, agonist, TR-FRET", "measurement": "EC50", "value": "0.3 µM"}
{"SMILES": "N#Cc1ccc(C[C@H](Nc2c(Nc3ccc(Br)cc3)c(=O)c2=O)C(=O)N2CCc3ccccc32)cc1", "target or system": "FPR2", "assay": "calcium signal, agonist", "measurement": "EC50", "value": "0.2 µM"}
